Measurements from different studies.
A part holds a random share of what one study measured. Positions count from the first letter of the parent shown.

Study 1 — technique: protein-binding microarray; form: double-stranded DNA, one strand shown; sample: in vitro; tested at: 0.8 µM; notes: whole 60-bp probe, no competitor; reading: higher = stronger binding; shared flanks, not repeated: … GTCTTGATTCGCTTGACGCTGCTG
Target: Centromere-binding protein 1, full length, N-terminal tag (CBF1, Saccharomyces cerevisiae, UniProt P17106, residues 1-351)
Chain of UniProt P17106 (whole entry, looked up): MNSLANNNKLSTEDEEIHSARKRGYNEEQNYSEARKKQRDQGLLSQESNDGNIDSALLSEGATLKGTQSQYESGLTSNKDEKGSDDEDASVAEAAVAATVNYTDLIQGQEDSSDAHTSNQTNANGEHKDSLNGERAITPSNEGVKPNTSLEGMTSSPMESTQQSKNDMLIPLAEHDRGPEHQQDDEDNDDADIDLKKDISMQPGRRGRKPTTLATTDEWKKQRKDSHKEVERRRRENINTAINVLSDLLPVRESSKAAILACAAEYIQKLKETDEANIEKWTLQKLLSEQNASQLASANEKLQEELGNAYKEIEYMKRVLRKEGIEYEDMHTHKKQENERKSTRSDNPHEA
Oligonucleotide | fluorescence intensity [a.u.]
GAAATAGATAGCCCTGTCACCAGTATCGGGTGTTAG | 512
GAAAGCGGCGTTTTGTTCGTGGGACTCACACTTTAG | 503
CTAAGCCTCCATCATTACGTCACAAGTGTTATCTTC | 583
GAATATAATCACATTTCAAATATATCACGTGTTTAG | 12900
TGTACGAAGCTATGTCACCCGACTATAGTAGTTAGG | 602
GAACAGCCATGGCATCATGCGCTACCGCCGGATTAG | 504
GAAACTATTGCTCAGCACGACCAACTATAGCTCTAG | 549
GAAAATCTTTTCAGTGACGTCAGGACCGGTTTTTAG | 517
CCTAACTACTATAATCATGTGACATAGCTTCGTACA | 4470
CTACACGTATATATTCACCTCACAAATAATATCTTC | 517
CTACGCAGCTGCTATCATGTGTCTATTTGAGATTTC | 838
CCTAACTACTATAAGCACGTGCGATAGCTTCGTACA | 10100
CTACAAGAGGCCCATCAGGTGATCCATGATAACTTC | 2790
CTAGTGAAAAGTGCGCACGCGTATTGCGGCTTATTC | 619
CTAATTACACTCGCGAACGTGCGTCCGGGATGATTC | 528
CTACATGGGTTAAATTTTACATCAGATTTTTGATTC | 534
GAATGAGATGTGACTAACGTGAGCGCTTACGAATAG | 563
TGTACGAAGCTATTTCACGTTTCTATAGTAGTTAGG | 573
GAAATAAAAATAAATCATGTGTTATGCTATCTCTAG | 1260
GAAGGGGTAGTGGCGGTGGTGGTGGCGGCATCCTAG | 507
CTAGTGTCAGCATGTGGGGTGAGGATAATGAGTTTC | 614
TGTACGAAGCTATATTCCGTGACTATAGTAGTTAGG | 582
CTACAGCGTGCTGCTGATGTCAAAGAATTGGGATTC | 516
CTAAAAGCTGCCAACGTGACCTTACGTTCTGATTTC | 2920
CTACCTCAAAAGGATATCATGAGGTGATCTAGGTTC | 553

Study 2 — technique: RNA Bind-n-Seq; form: RNA; sample: in vitro; tested at: 365 nM; reference: no-protein control; reading: higher = stronger binding
Target: RNA binding protein fox-1 homolog 2, RRM domain, GST-SBP tag (RBFOX2, Homo sapiens, UniProt O43251-10, residues 100-194)
Notes: natural RNA segment, single round, ends assumed
Shared flanks, not repeated: GGGAGUUCUACAGUCCGACGAUC … UGGAAUUCUCGGGUGCCAA
Target sequence (chain): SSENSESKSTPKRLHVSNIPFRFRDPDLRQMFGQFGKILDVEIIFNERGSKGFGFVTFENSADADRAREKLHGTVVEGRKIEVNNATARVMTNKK
Oligonucleotide | RBNS enrichment (R)
UUGUUAUCCCACGUUCAGGCCAGGAUUAGUACAGAGCUGGUUAAGGCUUUCAUUUCACUUCAGAUUCAGCGGUGGGAGAGUGAGCUAGUACUGUCCUAACCCUGGCUUUU | 0.212
UCGUGGUUGGGAUUAGACCUGUUUGGAAACAGCUGCUGUCAGUGAUGCUCCGGUGUGCCAAGCCCCAGCUCCGAUGUCUGCUUUGUGCAAUUUGCCUUUACCUCACCAAA | 0.247
AUAUAAUUACUCCCAUUUUGCAGAUGAAGUAACUGAGGCUUAGAAAGGUUAAUAGCACCGGGGAACAAUUUCUCUGGGUGAGAAUUGGGACUCUGUUGCUGGUCUUCUCA | 0.521
UCUAUGCUGUUCGUGUUGGGUUUUGUUCAUGUCAGAUACGUGGUUCAUUCUCAGGACCAAGGGAAACUGUCUUGCCUGUCCUCCUAUCUCCUCCCUUUCAGCAUCCUUUG | 1.17
AGACAAUCUCAGCUUUUCUUAGACAAUCUUCUAUCUCAAACUUCAGACAUUCCAGAAUUGUCAUGAUGUUUACACUGUCUGAGUUAAAAAUCCUGUUCAAGAAAAAAAAA | 0.419
AGCUUUAAAAGUAAAAAUUCCAGAUUAUUACUGGUGGCUUUUUAAAAUAAAAACAACUUUAACACUUGAACAGCCUGGAUUUUGCCCCAUGUACAGUAAACCUGCGUUUC | 0.634
GUAACCCAUGAAGGCCCACAGCGGGAUGGGACUAGUUUAUAGGAGAGCGUUGUCAAUACCACUUAUAAAGCCAAGAAUUGCCAUGAUUUAAGACUAAGAUCUGUCUUUUU | 0.639
GAAGGCAGUGCCUGCUCUGCUGUGAGCCGCCAGGAACCCUCCUCCUGUCAAUGGGGGUGUAGUAUUUUUGCCAAAAUAUCAUGUUCAAUUUCAGUAGUUUGAUCAGUUGA | 0.71
CCACUUGGCUCUGUCCUCCCCAUUUUAGCCACCUCUGUAUUUAUGUUGCUUAUUCGUCUGUUUUUAUGGUUUGUUUUGUUUUUUUACUGGGUUGUGUUUAUAUUCGGGGG | 3.01
AAUUAUCACCAGCUUUUUUUCAUUCUUAACUCUUUAAAGGAUUCAAACGCAACUCAAAUCUGUGCUGGACUUUAAAAAAACAAUUCAGGACCAAAUUUUUUCUCAGUGUG | 0.819
UUUACUUGUUCAAAAAAAACAGUAAGAUCUCCCAAUUUGUUCUUUAUCCUGCACUUAAACUGAGUUUAAACUCUUUCAGCAGAUCUCCCUUCGUGGUAUCUUCACAGAUC | 0.521
GUCUCUCUCCCUGUCAUCAAUCAGGGUAGUAACUUGACUUAAGAAUACCACUUUUUAGAAAAAUUACGAUAGAGAUGGGAUCUCACUAGGUUGCCCAGGCUGGUGUCGAA | 0.374

Study 3 — technique: protein binding microarray; form: double-stranded DNA, one strand shown; sample: in vitro; tested at: not given; reference: not given; reading: higher = stronger binding
Target: Histone acetyltransferase KAT6A, both winged helices, GST fusion (KAT6A, Homo sapiens, UniProt Q92794, residues 1-181)
Notes: 8-mer, flanks averaged, mean of 2 arrays, mostly near background
Target sequence (chain): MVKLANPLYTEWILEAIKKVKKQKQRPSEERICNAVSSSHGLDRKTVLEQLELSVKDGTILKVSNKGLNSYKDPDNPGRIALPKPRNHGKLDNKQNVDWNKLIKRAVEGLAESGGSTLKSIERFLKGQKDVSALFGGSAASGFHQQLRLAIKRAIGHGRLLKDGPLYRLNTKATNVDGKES
Oligonucleotide | E-score
CGGCCGCA | 0.364
CACCGTTA | 0.0621
CTCAAAAC | -0.203
GAGACTGC | 0.0791
ACAGGCCT | -0.0669
GCTACTAC | 0.00645
GTCCCAGA | -0.0704
AGGGATAT | -0.23
AGAGCAGC | -0.0715
ATGTTGGG | -0.0921
CCTGCCCG | 0.135
TATGAGCA | -0.123
AAACGCCG | 0.285
GACCCATA | -0.126
AAACATGT | 0.0801
GCTACAAC | 0.00566
ATCGCAAG | -0.00777
GTAACACA | 0.0416

Study 4 — technique: universal PBM; form: double-stranded DNA, one strand shown; sample: in vitro; tested at: 600 nM; reading: higher = stronger binding
Target: Sal-like protein 4, full length isoform A (SALL4, Homo sapiens, UniProt Q9UJQ4, residues 1-1053)
Chain of UniProt Q9UJQ4 (whole entry, looked up): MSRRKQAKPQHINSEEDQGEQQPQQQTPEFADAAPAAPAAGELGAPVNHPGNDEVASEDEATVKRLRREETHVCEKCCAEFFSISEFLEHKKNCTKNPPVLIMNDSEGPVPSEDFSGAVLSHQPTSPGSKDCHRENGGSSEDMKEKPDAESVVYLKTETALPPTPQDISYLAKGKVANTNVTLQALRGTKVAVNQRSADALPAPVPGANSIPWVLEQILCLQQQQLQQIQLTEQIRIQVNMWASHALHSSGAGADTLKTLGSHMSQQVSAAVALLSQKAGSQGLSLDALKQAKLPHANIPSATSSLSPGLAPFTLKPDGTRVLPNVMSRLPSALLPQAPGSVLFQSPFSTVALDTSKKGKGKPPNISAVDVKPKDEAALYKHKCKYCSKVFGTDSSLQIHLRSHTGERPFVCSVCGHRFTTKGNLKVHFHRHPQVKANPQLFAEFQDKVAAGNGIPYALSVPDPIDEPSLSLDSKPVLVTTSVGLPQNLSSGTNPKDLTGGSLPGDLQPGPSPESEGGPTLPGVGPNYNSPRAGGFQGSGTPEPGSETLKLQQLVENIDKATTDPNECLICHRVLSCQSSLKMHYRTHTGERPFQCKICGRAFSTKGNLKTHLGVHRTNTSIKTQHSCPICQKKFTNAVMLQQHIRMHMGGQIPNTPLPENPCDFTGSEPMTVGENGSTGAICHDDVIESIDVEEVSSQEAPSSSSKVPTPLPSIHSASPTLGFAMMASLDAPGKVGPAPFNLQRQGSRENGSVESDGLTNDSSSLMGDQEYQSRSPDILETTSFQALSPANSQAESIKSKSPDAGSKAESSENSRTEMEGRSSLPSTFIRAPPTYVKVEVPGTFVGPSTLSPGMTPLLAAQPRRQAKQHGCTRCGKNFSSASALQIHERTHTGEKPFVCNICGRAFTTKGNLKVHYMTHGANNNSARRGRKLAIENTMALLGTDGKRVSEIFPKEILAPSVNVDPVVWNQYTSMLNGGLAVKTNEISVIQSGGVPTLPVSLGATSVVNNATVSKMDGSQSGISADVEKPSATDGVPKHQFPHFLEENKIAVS
Notes: 8-mer, flanks averaged, mean of replicates
Oligonucleotide | E-score
AATCAGAA | 0.128
GTGATGGA | 0.0159
CGCAACGC | -0.159
TATTGAGA | 0.299
GTCGTCTA | -0.156
GCTCGACC | -0.26
CAAACGGA | -0.141
GCGGAAAC | -0.146
CCCTGTTA | 0.0921
GTATAGAA | 0.162
AGTAACCA | -0.0213
GACATGCA | 0.0409
ATGGTGAG | -0.0307
ATGGGCGA | -0.229
AAAACGGT | -0.0471
AACAGAAC | 0.0946
CACGGTGC | -0.241
AACCAGAA | 0.042
GATTATCA | 0.246

Study 5 — technique: RNA Bind-n-Seq; form: RNA; sample: in vitro; tested at: 20 nM; notes: 6-mer, flanks averaged, single round; with: 150 mM KCl; reference: input library; reading: higher = stronger binding
Target: TAR DNA-binding protein 43, full length, His tag (TARDBP, Homo sapiens, UniProt Q13148, residues 1-414)
Oligonucleotide | 6-mer enrichment (R)
AUAGGC | 0.824
UAAGGC | 0.804
UCAACG | 0.689
GCCAAA | 0.8
UCAAUC | 0.541
AGAUAU | 0.624
ACGCAU | 0.671
CUGCAA | 0.646
CAGGAC | 0.911
UGCCCU | 0.658
CCGGGC | 1.85
UAAUCU | 0.569
AAUGUU | 0.703
ACCGAG | 0.927

Study 6 — target: CCNB3, cyclin fold, Cln2 fusion (human); technique: yeast growth competition, sequencing; sample: yeast; notes: weak parent motif; reference: not given; reading: higher = stronger binding
Starting sequence: SLBP docking peptide (human); ARYKRKLLINDFG
Variant | normalised enrichment score
ARYKRPLLINDFG [K6P] | 0.435
ARYKRKLLWNDFG [I9W] | 0.133
VRYKRKLLINDFG [A1V] | 0.321
ARYKRKLLINCFG [D11C] | -0.0232
ARYKRKLLHNDFG [I9H] | 0.103
ARPKRKLLINDFG [Y3P] | 0.141
ARYKRKYLINDFG [L7Y] | 0.283
ARYKRKLLINNFG [D11N] | 0.132
ARYKRKLLINDFH [G13H] | 0.0473
ARYYRKLLINDFG [K4Y] | 0.369
ARYPRKLLINDFG [K4P] | -0.145
ARNKRKLLINDFG [Y3N] | 0.304
ARYKRKLLINDPG [F12P] | -0.0157
ARYKRKLLINDFY [G13Y] | 0.537
ARYKRKLLINPFG [D11P] | 1.06
ARYKRKLKINDFG [L8K] | -0.812
ARYKRDLLINDFG [K6D] | -0.326
ARYKRRLLINDFG [K6R] | -0.228
ARYKEKLLINDFG [R5E] | 0.144
ARYKRKLLQNDFG [I9Q] | -0.168
ARYKRVLLINDFG [K6V] | 0.457
ARAKRKLLINDFG [Y3A] | 0.383
ARYKRKLLINDYG [F12Y] | 0.375
ARYKRKLLIGDFG [N10G] | 0.864
ARYKRKLDINDFG [L8D] | -0.0304

Other studies, line by line
Molecule | target | assay | system | setting | how to read | measurement | result
PhoQ, residues 284 288 289 292 302 303 TLASMF | PhoP, residues 12 14 15 18 19 TQAIL (Escherichia coli, UniProt P23836) | Sort-seq, measured: YFP reporter | E. coli | PhoQ-PhoP variant library, with: 10 µM Mg2+ | reference: high Mg2+ state, higher = stronger signaling | fold induction | 2.16

Repeated from above (study 1):
Oligonucleotide | fluorescence intensity [a.u.]
GAATATAATCACATTTCAAATATATCACGTGTTTAG | 12900
GAAAGCGGCGTTTTGTTCGTGGGACTCACACTTTAG | 503
CTAAAAGCTGCCAACGTGACCTTACGTTCTGATTTC | 2920
CTACAAGAGGCCCATCAGGTGATCCATGATAACTTC | 2790
TGTACGAAGCTATGTCACCCGACTATAGTAGTTAGG | 602
CTAGTGTCAGCATGTGGGGTGAGGATAATGAGTTTC | 614
CTAGTGAAAAGTGCGCACGCGTATTGCGGCTTATTC | 619
GAACAGCCATGGCATCATGCGCTACCGCCGGATTAG | 504
CTACACGTATATATTCACCTCACAAATAATATCTTC | 517
GAAGGGGTAGTGGCGGTGGTGGTGGCGGCATCCTAG | 507
CTACAGCGTGCTGCTGATGTCAAAGAATTGGGATTC | 516
CTACATGGGTTAAATTTTACATCAGATTTTTGATTC | 534
TGTACGAAGCTATTTCACGTTTCTATAGTAGTTAGG | 573
